Assay results from different studies.
Compare with care: the assays were run in different laboratories. ± gives the spread as reported.

The HDL level of Cc1cc2c(cc1C1(c3ncc(C(=O)O)cn3)CC1)C(C)(C)CCC2(C)C is reported as 47 ± 6 mg/dL (Sprague-Dawley rat, male, plasma; oral, 100 mg/kg, 6 h, sesame oil vehicle).
The tissue ratio of CCCC[C@@H]1NC(=O)[C@@H](NC(=O)[C@H](CCC(=O)O)NC(=O)CNC(=O)CN2CCN(CC(=O)O)CCN(CC(=O)O)CCN(CC(=O)O)CC2)CCCCNC(=O)C[C@@H](C(N)=O)NC(=O)[C@H](C(C)C)NC(=O)[C@@H]2CCCN2C(=O)[C@H](CCCNC(=N)N)NC(=O)CNC(=O)[C@H](Cc2c[nH]c3ccccc23)NC(=O)[C@H](CCCNC(=N)N)NC(=O)[C@@H](Cc2ccccc2)NC(=O)[C@H](Cc2c[nH]cn2)NC(=O)[C@H](CCC(=O)O)NC1=O [gallium-67 labelled] is reported as 9.25 (C57 mice, B16/F1 flank melanoma; intravenous, 2 h, with: blocking peptide 10 µg; baseline: tumour over lung).
For CC(C)NC(=O)N1CC=C(c2cc3c(Nc4ccc5scnc5c4)ncnc3s2)CC1, the concentration was 0.42 ng/mL (BALB/c mouse, plasma; oral, 10 mg/kg, 6 h).
The AUC of CCS(=O)(=O)c1ccccc1C(=O)N1CCN(c2nc3ccc(F)cc3s2)C[C@@H]1C is reported as 404 ± 109 ng·h/mL (mouse, brain; intravenous, 3 mg/kg).
CC[C@H](C)[C@H](NC(=O)[C@H](N)Cc1ccc(O)cc1)C(=O)N[C@H]1CSSC[C@@H](C(=O)N(C)[C@H](C(N)=O)[C@@H](C)CC)NC(=O)[C@H](CCCNC(=N)N)NC(=O)[C@H](Cc2c[nH]cn2)NC(=O)[C@H](C)NC(=O)CN(C)C(=O)[C@H](Cc2c[nH]c3ccccc23)NC(=O)[C@H](CC(=O)O)NC(=O)[C@H](CCC(N)=O)NC(=O)[C@H](Cc2cn(C)c3ccccc23)NC(=O)[C@H](C(C)C)NC1=O gave a recovery of 100.2 ± 0.2% (UPLC-ESI-MS; cynomolgus monkey plasma; 0.18 µg/mL, 48 h, 4 °C, autosampler after SPE).
With CC(C)(O)c1ncc([S@](N)(=O)=NC(=O)Nc2c3c(cc4c2CCC4)CCC3)s1 the AUC(0-last)/dose was 923 ng·h/mL/mg (healthy human, fasted; oral, 30 mg single dose, capsule formulation).
CN(C)c1cc(CN2CCCCC2)c(O)c2c1C[C@H]1C[C@H]3[C@H](N(C)C)C(O)=C(C(N)=O)C(=O)[C@@]3(O)C(O)=C1C2=O gave a Tmax of 4 h (cynomolgus monkey, plasma; oral, 5 mg/kg).
For CC(C)[C@H](NC(=O)CNC(=O)[C@H](CCC(N)=O)NC(=O)[C@H](C)N)C(=O)O, the AUC(0-last) was 490 ng·h/mL (human, plasma; intravenous infusion, 30 mg/kg single, 15 min infusion, geometric mean).
With C=C(c1ccc(C(=O)O)c(F)c1)c1cc2c(cc1C)C(C)(C)C=CC2(C)C the HDL level was 80 ± 7.5 mg/dL (Sprague-Dawley rat, male, plasma; oral, 100 mg/kg, 2 h, sesame oil vehicle).
With C[C@H]1CO[C@@H]2Cn3cc(C(=O)NCc4ccc(F)cc4F)c(=O)c(O[C@@H]4O[C@H](C(=O)O)[C@@H](O)[C@H](O)[C@H]4O)c3C(=O)N12 the plasma concentration was 22.6 ± 57.4 ng/mL (LC-MS/MS; human, UGT1A1 wild-type, plasma; oral, 30 mg, 1 weeks after last oral dose).
For N=C(N)NCCC[C@@H]1NC(=O)[C@H](Cc2c[nH]c3ccccc23)NC(=O)[C@@H](CC2CCCCC2)NC(=O)[C@@H]2CCCN2C(=O)[C@@H](NC(=O)CCc2ccccc2)CCCNC1=O, the AUC was 2090 ng·h/mL (C57BL/6J mouse, plasma; intraperitoneal, 1 mg/kg, single dose).
The plasma concentration of Nc1nccc(-c2cn(C3CC3)c3ccccc23)n1 is reported as 15.2 ng/g (radiolabelled metabolite profiling; human male, plasma; oral, 110 mg, 6 h).
O=[11C](OC(C(F)(F)F)C(F)(F)F)N1CCC(CNS(=O)(=O)c2ccc(Cl)cc2)CC1 gave a radioactivity uptake of 1.75 SUV (PET; Sprague-Dawley rat, striatum; intravenous, dose not given, baseline).
CCCC[C@H](NC(=O)CNC(=O)CNC(=O)CN1CCN(CC(=O)O)CCN(CC(=O)O)CCN(CC(=O)O)CC1)C(=O)N[C@H]1CC(=O)NCCCC[C@@H](C(N)=O)NC(=O)[C@H](Cc2c[nH]c3ccccc23)NC(=O)[C@H](CCCNC(=N)N)NC(=O)[C@@H](Cc2ccccc2)NC(=O)[C@H](Cc2c[nH]cn2)NC1=O [copper-64 labelled] has an uptake ratio of 2.41 (female C57 mouse, B16/F1 melanoma; intravenous, 0.037 MBq, 0.5 h; baseline: tumour over blood).
COc1ccc(NC(=O)[C@H](CCCCN)NC(=O)c2cc(NC(=O)[C@H](CCCCN)NC(=O)c3cc(NC(=O)[C@H](CCCCN)NC(=O)c4cc(NC(=O)[C@@H](N)CCCCN)ccc4OC)ccc3OC)ccc2OC)cc1C(=O)NCCC(=O)O — result for “enthalpy of dissociation”: 13.8 kcal/mol (ITC heats of dilution; TBS; pH 7.4, 25 °C, hexamer to monomer).
CC1(C)COCN1C(=O)n1nnc2c(F)cc(F)cc21 has a compound remaining of 8 ± 1% (mouse liver microsomes; 50 µM, 1 h).
Cn1c(=O)oc2ccc(-c3ccc(CC(C#N)NC(=O)C4CNCCCO4)c(F)c3)cc21 (stereo not shown): “treatment-related adverse event incidence” 0% (item: skin exfoliation; human volunteers; oral, 40 mg, single ascending dose fed).
O=C(NCCCN(CCCCN(CCCNC(=O)c1cccc(=O)n1[O-])C(=O)c1cccc(=O)n1[O-])C(=O)c1cccc(=O)n1[O-])c1cccc(=O)n1[O-].[89Zr+4] gave an intact complex of 98.7 ± 1.9% (radio-TLC; PBS; 1 d, pH 7.4, 37 °C, with: Zn^2+ 10-fold excess).
With Cc1ccccc1/N=N/c1ccc(/N=N/c2c(O)ccc3ccccc23)c(C)c1 the measured concentration was 15.9 µg/L (rat whole blood QC samples; 16.0 µg/L, 2 h, room temperature, short-term stability).
CCc1nc(-c2ccc(-c3ccc(CCC(N)(CO)CO)cc3)cc2)co1 has a phosphorylation level of 69% (Sprague-Dawley rat, male, whole blood; oral, 3 mg/kg, 6 h).
The urinary excretion of O=C(O)C1OC(OC2CCC(C(O)CC3c4c(F)cccc4-c4cncn43)CC2)C(O)C(O)C1O (stereo not shown) is reported as 8.74% (human, urine; oral, 200 mg, [14C]-navoximod dosed; baseline: dose).
CC(C)(Sc1ccncc1-c1ccc(C#N)c2ccccc12)C(=O)OC1OC(C(=O)O)C(O)C(O)C1O (stereo not shown) has a terminal half-life of 20.8 h (plasma; oral, 15 mg, moderate renal impairment, fasted).
C#CCOc1ccc(/C=C2\SC(=O)N(CC(=O)NCc3ccccc3)C2=O)cc1: “Kirkwood-Buff integral G2,3” -367 cm³/mol (inverse Kirkwood-Buff integrals; binary solvent mixture; 298.15 K, mole fraction x1 0.70).
C[C@H](CN(C)Cc1ccccc1)NC(=O)c1ccc(-c2noc(C(F)(F)[18F])n2)cc1 has a brain-to-muscle ratio of 1.88 ± 0.21 (PET; Sprague-Dawley rat, female, brain and muscle; intravenous, 60 min; baseline: brain SUV over muscle SUV).
With Cc1ccc(OCC(=O)O)cc1 the Tmax was 1.38 h (Sprague-Dawley rat, male, plasma; oral gavage, 30 mg/kg of parent drug).
The tracer uptake of C[C@H](Oc1cc(-c2cnn(C3CCN(CC[18F])CC3)c2)cnc1N)c1c(Cl)ccc(F)c1Cl is reported as 16.9 ± 5.5 %ID/cc (PET imaging; nude mouse, kidney; iv, 5 min post injection).
NS(=O)(=O)c1ccc(N2N=C(C(F)(F)F)CC2c2ccc(F)cc2F)cc1 (stereo not shown) gave a plasma concentration of 544 ± 327 ng/mL (Beagle dog, male, arthritis model, plasma; oral, 4 mg/kg single dose, day 0).
Under “fluorescence quantum yield”, COc1ccc2cc(-c3ccc(-c4ccc(C)cn4)nc3)oc2c1 is recorded as 0.69 (DMF; with: quinine bisulfate reference).
CCN(c1cc(C#CCN2CCOCC2)cc(C(=O)NCc2c(C)cc(C)[nH]c2=O)c1C)[C@H]1CC[C@H](N(C)CCOC)CC1 — result for “scaled intrinsic clearance”: less than 10 mL/min/kg (rat liver microsomes; well-stirred model).
With Cc1ncnc(C)c1-c1ccc(C(=O)N2CC[C@H](C(=O)Nc3cc(F)c(F)c(F)c3)C2)[nH]1 the CLint was 6.3 µL/min/mg protein (human liver microsomes; 1 µM).
CC(C)C[C@@H]1NC(=O)[C@@H]2CCCN2C(=O)[C@H](Cc2c[nH]c3ccccc23)NC(=O)[C@@H]2CCCN2C(=O)[C@H](Cc2ccccc2)NC(=O)[C@H](CC(=O)O)NC(=O)[C@H](C)NC(=O)[C@@H]2CSSC[C@H](NC(=O)[C@H](CCC(N)=O)NC(=O)[C@H](Cc3c[nH]cn3)NC(=O)CNC1=O)C(=O)N[C@@H](Cc1ccccc1)C(=O)N1CCC[C@H]1C(=O)N[C@@H](CC(=O)O)C(=O)NCC(=O)N[C@@H](Cc1ccccc1)C(=O)N[C@H]1CSSC[C@H](NC(=O)[C@H](CO)NC(=O)[C@H](Cc3c[nH]cn3)NC(=O)[C@H](Cc3c[nH]cn3)NC(=O)[C@H](Cc3c[nH]c4ccccc34)NC1=O)C(=O)N[C@@H](C(C)C)C(=O)N1CCC[C@H]1C(=O)N[C@@H](CO)C(=O)NCC(=O)N[C@@H]([C@@H](C)O)C(=O)N2 — result for “dimer dissociation temperature”: 328 K (NOESY NMR; water).
O=c1nc(NO)ccn1[C@@H]1O[C@H](CO)[C@@H](O)[C@H]1O gave a mRNA level of 0.2 fold (RT-PCR, item: CYP2B1; normal rat, liver; oral, 80 mg/kg twice daily, 5 days; baseline: untreated rats).
CCC/C(=C\C1=C(OC)C(=O)c2ccccc2C1=O)C(=O)NOC gave a CLint of 4.7 mL/min/kg (human liver S9; 1 µM, phase II UGT conditions).
For NC[C@@H](C(=O)Nc1ccc(-c2cn[nH]c2)cc1)c1ccccc1, “ocular irritation score” read 0 (OECD 405, item: Iris; New Zealand White rabbit; topical, 0.1 %, 25 h, day 2; direction not given).

Repeated from above:
With C[C@H]1CO[C@@H]2Cn3cc(C(=O)NCc4ccc(F)cc4F)c(=O)c(O[C@@H]4O[C@H](C(=O)O)[C@@H](O)[C@H](O)[C@H]4O)c3C(=O)N12 the plasma concentration was 22.6 ± 57.4 ng/mL (LC-MS/MS; human, UGT1A1 wild-type, plasma; oral, 30 mg, 1 weeks after last oral dose).
For N=C(N)NCCC[C@@H]1NC(=O)[C@H](Cc2c[nH]c3ccccc23)NC(=O)[C@@H](CC2CCCCC2)NC(=O)[C@@H]2CCCN2C(=O)[C@@H](NC(=O)CCc2ccccc2)CCCNC1=O, the AUC was 2090 ng·h/mL (C57BL/6J mouse, plasma; intraperitoneal, 1 mg/kg, single dose).
The plasma concentration of Nc1nccc(-c2cn(C3CC3)c3ccccc23)n1 is reported as 15.2 ng/g (radiolabelled metabolite profiling; human male, plasma; oral, 110 mg, 6 h).
